{"data": "Experimental data collected from several papers", "organism": "Staphylococcus aureus", "note": "Each line is one published result; not all experiments were run side by side."}
{"SMILES": "COc1cc(/C=N/N2C(=O)c3ccccc3NC2c2cc(OC)c(O)c([N+](=O)[O-])c2)cc([N+](=O)[O-])c1O (stereo not shown)", "assay": "microbial growth, broth dilution", "test system": "MRSA", "conditions": "24 h, drug-resistant strain, clinical isolate", "MIC": "> 256 µg/mL"}
{"SMILES": "CN[C@H](CC(C)C)C(=O)N[C@H]1C(=O)N[C@@H](CC(N)=O)C(=O)N[C@H]2C(=O)N[C@H]3C(=O)N[C@H](C(=O)N[C@H](C(=O)NCc4cn(CCOCCOCCOCCC(=O)N[C@H](C(=O)N[C@@H](CCN)C(=O)N[C@H]5CCNC(=O)[C@H]([C@@H](C)O)NC(=O)[C@H](CCN)NC(=O)[C@H](CCN)NC(=O)[C@H](CC(C)C)NC(=O)[C@@H](CC(C)C)NC(=O)[C@H](CCN)NC5=O)[C@@H](C)O)nn4)c4cc(O)cc(O)c4-c4cc3ccc4O)[C@H](O)c3ccc(c(Cl)c3)Oc3cc2cc(c3O[C@@H]2O[C@H](CO)[C@@H](O)[C@H](O)[C@H]2O[C@H]2C[C@](C)(N)[C@H](O)[C@H](C)O2)Oc2ccc(cc2Cl)[C@H]1O", "assay": "broth microdilution", "test system": "MSSA ATCC 29213", "conditions": "20 to 24 h, 37 °C, 0.002% polysorbate 80", "MIC": "0.25 µg/mL"}
{"SMILES": "CC[C@H](C)[C@H](NC(=O)[C@H](CCCNC(=N)N)NC(=O)[C@H](Cc1ccccc1)NC(=O)[C@H](CC(C)C)NC(=O)[C@H](CCCCN)NC(=O)[C@H](CO)NC(=O)[C@@H](NC(=O)[C@H](CC(C)C)NC(=O)[C@H](CCCCN)NC(=O)[C@H](C)NC(=O)[C@H](CC(N)=O)NC(=O)[C@H](CCCNC(=N)N)NC(=O)[C@H](Cc1ccc(O)cc1)NC(=O)[C@H](C)NC(=O)[C@@H](NC(=O)[C@H](CCCCN)NC(=O)[C@H](CC(N)=O)NC(=O)[C@H](CCCCN)NC(=O)[C@H](CC(C)C)NC(=O)[C@H](CO)NC(=O)[C@H](CC(C)C)NC(=O)[C@H](C)NC(=O)[C@H](C)NC(=O)[C@H](CO)NC(=O)[C@@H](NC(=O)[C@@H](NC(=O)[C@H](Cc1c[nH]c2ccccc12)NC(=O)[C@@H](NC(=O)[C@H](CO)NC(=O)[C@@H](NC(=O)[C@@H](N)CC(C)C)C(C)C)C(C)C)[C@@H](C)CC)[C@@H](C)CC)C(C)C)C(C)C)C(=O)N[C@@H](C)C(=O)N[C@@H](CC(C)C)C(=O)O", "assay": "broth microdilution", "test system": "ATCC 29213", "conditions": "24 h, 37 °C", "MIC": "16 µg/mL"}
{"SMILES": "CC[C@H](C)[C@H](NC(=O)[C@H](CC(C)C)NC(=O)[C@H](CCC(=O)O)NC(=O)[C@H](CO)NC(=O)[C@H](CCCNC(=N)N)NC(=O)[C@@H](N)CO)C(=O)N[C@H](C(=O)N[C@@H](CCCNC(=N)N)C(=O)N[C@@H](CCC(N)=O)C(=O)N[C@@H](CCCNC(=N)N)C(=O)N[C@@H](CC(C)C)C(=O)N[C@@H](Cc1ccccc1)C(N)=O)C(C)C", "assay": "broth microdilution", "test system": "Mueller Hinton broth", "MIC": "> 400 µg/mL"}
{"SMILES": "CC[C@H](C)[C@H](NC(=O)[C@@H](NC(=O)[C@H](CCCCN)NC(=O)CNC(=O)[C@@H](NC(=O)[C@@H](NC(=O)[C@H](CO)NC(=O)[C@@H](NC(=O)[C@@H](NC(=O)[C@@H]1CCCN1C(=O)[C@@H](NC(=O)[C@@H](NC(=O)CN)[C@@H](C)CC)[C@@H](C)CC)[C@@H](C)CC)[C@@H](C)CC)[C@@H](C)CC)[C@@H](C)CC)[C@@H](C)CC)C(N)=O", "assay": "broth microdilution", "test system": "USA300 MRSA", "MIC": "> 34 µM"}
{"SMILES": "CN1C(=O)[C@@H]2NC(=O)[C@@H]3NC(=O)[C@@H](c4ccc(O)cc4)NC(=O)[C@H](NC(=O)C(NCc4cc(C(F)(F)F)cc(C(F)(F)F)c4)c4ccc(O)cc4)Cc4c[nH]c5cc(ccc45)-c4cc3cc(c4O)Oc3ccc(cc3)C[C@H]1C(=O)N[C@@H](C(=O)O)c1ccc(O)c(c1)Oc1ccc2cc1 (stereo partly shown)", "test system": "ATCC 33591 MRSA, Mueller-Hinton broth", "MIC": "8 µg/mL"}
{"SMILES": "CCCCN1C(=O)/C(=N\\NC(=N)N)c2cc(C)ccc21", "assay": "broth microdilution", "test system": "BAA41 MRSA", "conditions": "18 h, 37 °C", "MIC": "96 µg/mL"}
{"SMILES": "COc1ccc2ccc3c(c2c1)C=[N+]1C2CCCCC2[N+]2=Cc4ccc(F)cc4[O][Au-]21[O]3.F[P-](F)(F)(F)(F)F (stereo not shown)", "assay": "bacterial growth, broth microdilution", "test system": "vancomycin-intermediate", "conditions": "24 h", "MIC": "> 20 µM"}
{"SMILES": "N=C(N)NCCC[C@@H]1NC(=O)[C@H](CCCNC(=N)N)NC(=O)[C@H](CCCNC(=N)N)NC(=O)[C@H](Cc2c[nH]c3ccccc23)NC(=O)[C@H](Cc2c[nH]c3ccccc23)NC(=O)[C@H](Cc2c[nH]c3ccccc23)NC(=O)[C@H](CCCNC(=N)N)NC1=O", "assay": "broth microdilution", "test system": "MRSA ATCC 43300", "conditions": "37 °C", "MIC": "18.5 µg/mL"}
{"SMILES": "CN[C@@H]1[C@H](O)[C@H](NC)[C@H]2O[C@]3(O)[C@H](O[C@@H]2[C@H]1O)O[C@H](C)C[C@]3(O)CNCc1ccc(F)cc1", "test system": "MRSA NRS70", "MIC": "> 200 µg/mL"}
{"SMILES": "CC[C@H](C)[C@H](NC(=O)[C@H](C)NC(=O)[C@H](C)NC(=O)[C@H](Cc1ccccc1)NC(=O)[C@H](C)NC(=O)CNC(=O)[C@H](Cc1ccccc1)NC(=O)[C@@H](N)Cc1ccccc1)C(=O)N[C@@H](C)C(=O)N[C@@H](CO)C(=O)N[C@@H](CC(C)C)C(=O)N[C@H](C(=O)N[C@H](C(=O)N1CCC[C@H]1C(=O)N[C@@H](CCCCN)C(=O)N[C@@H](CC(C)C)C(=O)N[C@H](C(=O)N[C@@H](CCC(=O)O)C(=O)N[C@@H](CCCCN)C(=O)N[C@H](C(=O)N[C@@H](CCCCN)C(=O)N[C@@H](CCC(N)=O)C(=O)N[C@@H](C)C(=O)N[C@@H](CCCNC(=N)N)C(N)=O)[C@@H](C)CC)[C@@H](C)CC)[C@@H](C)CC)C(C)C", "assay": "broth microdilution", "test system": "MRSA ATCC 33592", "MIC": "3.12 to 6.25 µM"}
{"SMILES": "CCCCCCCCCCCCCCCC(=O)N[C@@H](CCCCN)C(=O)N1CCC[C@H]1C(=O)N[C@H](C(N)=O)C(C)C", "assay": "broth microdilution", "test system": "MRSA ATCC 33591", "conditions": "Mueller-Hinton broth", "MIC": "11.4 µM"}
{"SMILES": "O=c1[nH]c(=O)c2cccc(O)c2o1", "test system": "ATCC 29213", "conditions": "50 µg/mL", "MIC": "inactive"}
{"SMILES": "CC(C)C[C@H](NC(=O)[C@H](CC(C)C)NC(=O)[C@H](CCCCN)NC(=O)[C@H](CC(C)C)NC(=O)[C@H](CC(C)C)NC(=O)[C@H](CCCCN)NC(=O)[C@H](CCCCN)NC(=O)[C@H](CC(C)C)NC(=O)[C@H](CC(C)C)NC(=O)[C@H](CCCCN)NC(=O)[C@H](CCCCN)NC(=O)[C@H](CC(C)C)NC(=O)[C@H](CC(C)C)NC(=O)[C@H](CCCCN)NC(=O)[C@@H](N)CC(C)C)C(N)=O", "test system": "MRSA AMC 201, RPMI medium", "conditions": "24 h, 37 °C", "MIC": "3.7 µM"}
{"SMILES": "CC(C)(C)c1ccc(COc2cc3c(=O)c(C(=O)NCCNCCO)cn(Cc4ccccc4)c3cc2Cl)cc1", "test system": "ATCC 43300 MRSA", "scale": "≥80% growth inhibition", "MIC": "< 0.25 µg/mL"}
{"SMILES": "CC[C@H](C)[C@H](NC(=O)[C@H](CC(=O)O)NC(=O)[C@H](Cc1ccccc1)NC(=O)[C@H](CC(C)C)NC(=O)CN)C(=O)N[C@@H](CC(C)C)C(=O)N[C@@H](CCCCN)C(=O)N[C@@H](CCCCN)C(=O)N[C@@H](CC(C)C)C(=O)N[C@@H](CC(C)C)C(=O)N[C@@H](CCCCN)C(=O)N[C@@H](CC(C)C)C(=O)N[C@@H](CC(C)C)C(=O)N[C@@H](CCCCN)C(N)=O", "test system": "SH1000 GFP-expressing, nutrient broth", "conditions": "20 h, 37 °C", "MIC": "100 µM"}
{"SMILES": "c1ccc(CCNC2CCCc3c2[nH]c2ccc(C4CCCCC4)cc32)cc1 (stereo not shown)", "assay": "broth microdilution", "test system": "Mu50 VISA, cation-adjusted Mueller-Hinton broth", "MIC": "2 µg/mL"}
{"SMILES": "CC(C)C[C@@H]1NC(=O)[C@H](C)NC(=O)[C@H](NC(=O)[C@@H](N)COC(=O)[C@@H](C)NC(=O)[C@@H](CC(C)C)NC(=O)[C@@H](N)Cc2ccccc2)[C@H](C(N)=O)OC(=O)[C@H](CC(C)C)NC1=O", "test system": "MSSA ATCC 29213", "conditions": "TFA salt", "MIC": "> 32 µg/mL"}
{"SMILES": "O=C(c1ccccc1O)c1[nH]c(Cl)c(Cl)c1-n1c(C(=O)c2ccccc2O)cc(Cl)c1Cl", "assay": "microbial growth, broth dilution", "test system": "NCTC8325", "conditions": "20 h", "MIC": "0.25 µg/mL"}
